Results from different studies.
Numbered parts are unrelated; each lists some results of a single study. Changes are numbered by the printed parent chain.

Block 1 — technique: DHFR PCA, deep sequencing; sample: yeast; together with: (+)-ABA 0.39 µM; relative to: wild-type fitted maximum; direction: higher = stronger binding
Target: ABI1, truncated, D143A, DHFR fusion (Arabidopsis thaliana)
Setting: methotrexate growth selection, single substitutions
Parent: PYL1, truncated, DHFR fusion (Arabidopsis thaliana); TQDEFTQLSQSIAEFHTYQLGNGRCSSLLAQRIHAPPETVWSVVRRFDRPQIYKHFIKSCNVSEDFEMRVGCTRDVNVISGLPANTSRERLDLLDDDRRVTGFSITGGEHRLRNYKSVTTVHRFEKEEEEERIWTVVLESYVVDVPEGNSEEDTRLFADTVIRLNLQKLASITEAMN; partner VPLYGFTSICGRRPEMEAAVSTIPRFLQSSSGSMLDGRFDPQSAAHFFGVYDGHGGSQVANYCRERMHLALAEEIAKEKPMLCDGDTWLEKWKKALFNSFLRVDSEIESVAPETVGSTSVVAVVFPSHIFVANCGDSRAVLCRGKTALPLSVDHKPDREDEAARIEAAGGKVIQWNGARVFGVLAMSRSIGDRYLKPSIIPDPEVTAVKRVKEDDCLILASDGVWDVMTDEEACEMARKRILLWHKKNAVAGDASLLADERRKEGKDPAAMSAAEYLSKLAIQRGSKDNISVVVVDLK
Substitution	relative binding score [%]
E38S	13.9
Q10C	24.9
L156K	-16.2
D95G	-6.41
F47M	-6.06
R98T	0.0788
S104R	-7.52
V40F	-18.8
M68I	49.3
E4Y	28.7
I33G	0.58
D97R	32.6
D3Y	38.8
E127C	46
P36M	3.06
E174D	2.42

Block 2 — technique: RNA Bind-n-Seq; molecule type: RNA; sample: in vitro; concentration: 1 µM; setting: whole 134-nt RNA, ends assumed; together with: 150 mM KCl; relative to: input library; direction: higher = stronger binding
Target: Ras GTPase-activating protein-binding protein 1, C-terminal RGG region (G3BP1, Homo sapiens, UniProt Q13283)
Chain of UniProt Q13283 (whole entry, looked up): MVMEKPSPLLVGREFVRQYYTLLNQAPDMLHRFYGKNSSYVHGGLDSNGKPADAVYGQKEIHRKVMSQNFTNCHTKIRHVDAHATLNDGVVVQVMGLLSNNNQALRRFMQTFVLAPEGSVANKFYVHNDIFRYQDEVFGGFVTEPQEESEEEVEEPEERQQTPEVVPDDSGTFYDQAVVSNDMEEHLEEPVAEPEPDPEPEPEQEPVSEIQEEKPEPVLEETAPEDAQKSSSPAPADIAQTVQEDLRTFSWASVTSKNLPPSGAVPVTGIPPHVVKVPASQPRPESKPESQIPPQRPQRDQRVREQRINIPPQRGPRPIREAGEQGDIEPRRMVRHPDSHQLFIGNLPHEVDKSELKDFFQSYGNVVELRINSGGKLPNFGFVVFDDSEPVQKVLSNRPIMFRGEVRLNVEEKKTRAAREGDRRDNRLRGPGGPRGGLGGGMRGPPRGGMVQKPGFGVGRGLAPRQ
Strand	log2 enrichment
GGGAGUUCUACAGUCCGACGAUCACCAUGCAGUUGGGCAUCUUUGGGAAGUGGGGCAAGGGGGGGAUAGGGAGGGGGGUAACACUUUGGGAACAGGUGGUCCCAGGUCGUUUCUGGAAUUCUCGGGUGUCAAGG	-1.13
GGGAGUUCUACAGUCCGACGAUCAGUCCUGUGCUACACAUCGUAUGUACCGAAUCAAACCCCCCCAAAUUUAAAUUUAAAAAAGUAUUAUGUUACGCCGUUCGGAUCUGCACUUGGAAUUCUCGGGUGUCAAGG	-0.68
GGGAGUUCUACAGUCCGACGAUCAGUCCUGUGCUACACAUCGUAUGUACCGAAUCGGGUUUUUGGGUUUUUUUGGGUGGGAAAGUAUUAUGUUACGCCGUUCGGAUCUGCACUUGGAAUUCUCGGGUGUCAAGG	0.371
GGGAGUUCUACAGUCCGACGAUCUCUCCACCUGCUGAGCUCCCCAGUUUGAGGCGGAGCACACGCCAAAAGACCACGGGCUCCUGUGCUAGUACCAGGUAAUUUGUUUUUUUUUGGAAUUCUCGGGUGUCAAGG	-0.534
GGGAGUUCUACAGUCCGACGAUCUGGGAGGUGGAUUUUGUUUAUUUUUUUAGCUCAUUUCCAGGGGUGGGAAUUUUUUUUUAAUAUGUGUCAGGAAUAAAGUUGUUUUUGAAAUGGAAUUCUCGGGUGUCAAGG	3.51
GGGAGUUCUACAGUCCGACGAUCCCUCAAGUCCUGUGCUACACAUCGUAUGUACCGAAUCGGGGAGGAGGGGAGGGAAAGUAUUAUGUUACGCCGUUCGGAUCUGCACUUCCAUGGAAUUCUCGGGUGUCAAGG	0.455
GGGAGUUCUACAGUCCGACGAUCAGUCCUGUGCUACACAUCGUAUGUACCGAAUCGGGGUGGGGUUUGGGGUUUUUGGGGAAAGUAUUAUGUUACGCCGUUCGGAUCUGCACUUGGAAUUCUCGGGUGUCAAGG	2.06
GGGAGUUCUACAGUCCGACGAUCUAGGUAAGAAAGUACUCAUUGUCUAUGCACACCAGGAACCCAAGUCUUUCAACGGAUCCUUGAAGAAUGUGGCUGUAGAUGAACUGAGCAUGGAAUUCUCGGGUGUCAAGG	-0.731
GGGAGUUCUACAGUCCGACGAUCUCCUGUGCUACACAUCGUAUGUACCGAAUCAAACCCCCCCAAAUUUAAAUUUUUUUAAAAAAGUAUUAUGUUACGCCGUUCGGAUCUGCAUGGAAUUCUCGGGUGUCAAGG	-0.415
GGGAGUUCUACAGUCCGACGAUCGCAGGAAGUAAAAACAAAUGGAAAUGCUUCGGAUAGUGGCAGGGGUGGGGGUUGCUAAGGAAAGGGUGGGAUGGGAGUGGAAAAAGAGUUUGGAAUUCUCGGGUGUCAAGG	1.85
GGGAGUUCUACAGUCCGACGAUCGUCCUGUGCUACACAUCGUAUGUACCGAAUCAAAUUUUUUUAAAUUUUUAAACCCAAAAAAGUAUUAUGUUACGCCGUUCGGAUCUGCACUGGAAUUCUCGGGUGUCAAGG	-0.926
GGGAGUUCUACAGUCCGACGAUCUGGCCCUGGUGGCAUGCGGGGAGGAAGAGGUGGCCUCAUGGAUCGUGGUGGUCGCGGUGGAAUGUUCAGAGGUGGCCGUGGUGGAGACAGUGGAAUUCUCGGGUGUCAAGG	2.25
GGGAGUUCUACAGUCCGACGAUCCUCAAGUCCUGUGCUACACAUCGUAUGUACCGAAUCGGAGGAGGAAAAAAAGGAAAGUAUUAUGUUACGCCGUUCGGAUCUGCACUUCCAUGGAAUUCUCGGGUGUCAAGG	-1.35
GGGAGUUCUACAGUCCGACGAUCAAGUCCUGUGCUACACAUCGUAUGUACCGAAUCGGAAAAGGGAAAAGGGAAAAGGGGAAAGUAUUAUGUUACGCCGUUCGGAUCUGCACUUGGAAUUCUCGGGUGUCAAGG	-0.881

Block 3 — technique: competition protein-binding microarray; molecule type: double-stranded DNA, one strand shown; sample: in vitro; concentration: 2 µM; together with: Cbf1 competitor, 0.05 µM; direction: higher = stronger binding
Target: Phosphate system positive regulatory protein PHO4, full length, GST-tagged (PHO4, Saccharomyces cerevisiae, UniProt P07270, residues 1-312)
Setting: whole 60-bp probe, lowest competitor level
Residues (chain): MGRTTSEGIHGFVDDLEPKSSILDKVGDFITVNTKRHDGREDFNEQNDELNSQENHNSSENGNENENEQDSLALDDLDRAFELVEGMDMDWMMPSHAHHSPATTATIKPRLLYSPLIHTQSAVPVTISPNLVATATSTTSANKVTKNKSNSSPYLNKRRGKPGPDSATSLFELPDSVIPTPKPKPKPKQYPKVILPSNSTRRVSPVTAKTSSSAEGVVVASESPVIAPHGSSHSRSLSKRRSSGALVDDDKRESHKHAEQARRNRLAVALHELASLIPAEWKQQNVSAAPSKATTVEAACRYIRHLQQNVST
Strand	fluorescence intensity [a.u.]
TGCGCAACAACTTGTCCTGTGGGTGTATGTCTAGAAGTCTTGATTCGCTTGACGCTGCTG	5080
CTAACGAAGGTTTGTTGGGTGGGTGACAAGCCAAGTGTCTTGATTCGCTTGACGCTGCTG	3690
TGGCTACTTCGTCACCACGTGGGTACGTATCCGGAAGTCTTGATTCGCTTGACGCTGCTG	18100
TTCCAGTCCTTCCATCACGCATTCCATATAATAACCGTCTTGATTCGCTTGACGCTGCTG	7070
AAAAGAGAATTTCCTGGCGTGCAAATCTCTGCAGATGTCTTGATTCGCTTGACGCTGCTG	4730
CGATATAGCACCGACCATGTGGGCAAATTCGTAATAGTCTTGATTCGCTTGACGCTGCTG	12100
CGGGGTTAAGTTTGACACGTGGGTGGCTTGCAGCAGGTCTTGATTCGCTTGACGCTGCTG	17300
TTCGGGACATCTTGTCATGCTCCTCGCAATTCACTCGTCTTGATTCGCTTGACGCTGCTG	5250
TGTTACTGGGACAACGGCGTGCTAAGTGCATTTACTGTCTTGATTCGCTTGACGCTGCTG	8680
AACGAAATCCACCATCACGTTCCTAGCAACAAGAGGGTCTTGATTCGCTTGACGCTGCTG	12200
AAGAACATTGATAGTCCCGTGACGGCCCTAAGTGCGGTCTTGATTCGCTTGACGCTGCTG	6070
ATATGCTTTTGTTCGCATGTGGTGTTATTCCAGTTGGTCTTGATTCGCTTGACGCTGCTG	10700
TCGGACGATAACGCCGGCGTGATGGCCACAGAAACAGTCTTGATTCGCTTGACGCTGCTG	4990
CTTTCCCGATCTTGTCACCGCACTTTAGCACATTTGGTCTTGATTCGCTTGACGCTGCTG	4190
AGCCGGCAGTTGAATCAGGTGCTTCATCACTGGCATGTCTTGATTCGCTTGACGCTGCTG	4110
GGTTGTAATGTTGTTGATGTGACGGGCCATATTGAAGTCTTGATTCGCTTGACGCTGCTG	5060

Block 4 — technique: protein-binding microarray; molecule type: double-stranded DNA, one strand shown; sample: in vitro; concentration: 2200 nM top; setting: 60-bp whole probe; together with: salmon DNA 0.4 mg/ml; relative to: random background probes; direction: higher = stronger binding; shared flanks, not repeated: GCCTAGCAC … GTCTTGATTCGCTTGACGCTGCTG
Target: Interferon regulatory factor 7, full length, phosphomimetic (IRF7, Homo sapiens, UniProt Q92985, residues 1-503, S471D/S472D/S475D/S476D/S477D/S483D/S484D/S487D)
Residues (chain): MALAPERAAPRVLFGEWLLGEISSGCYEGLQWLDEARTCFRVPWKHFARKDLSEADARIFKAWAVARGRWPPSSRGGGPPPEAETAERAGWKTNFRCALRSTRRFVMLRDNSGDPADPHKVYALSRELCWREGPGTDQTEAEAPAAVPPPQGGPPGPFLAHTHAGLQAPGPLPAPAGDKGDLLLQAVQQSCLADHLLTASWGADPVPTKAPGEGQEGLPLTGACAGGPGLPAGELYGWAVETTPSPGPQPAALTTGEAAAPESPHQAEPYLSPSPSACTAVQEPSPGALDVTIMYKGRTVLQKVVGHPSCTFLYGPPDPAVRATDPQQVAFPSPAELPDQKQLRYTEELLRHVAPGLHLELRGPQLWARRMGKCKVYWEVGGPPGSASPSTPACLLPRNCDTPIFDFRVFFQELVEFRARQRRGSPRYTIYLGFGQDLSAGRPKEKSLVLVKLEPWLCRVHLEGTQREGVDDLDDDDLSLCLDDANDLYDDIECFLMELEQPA
Strand	fitted relative affinity [z-score]
TTAGCTTTCAGTATCGATTAGTGCTAG	2.33
GACGAACTGAGTCTCGAGGCGTGCTAG	-0.0924
TCAGTTTTACTTTCTATACTGTGCTAG	4.19
TCATTTTAAAGTTTCAGACTGTGCTAG	1.44
GACTATTTCGGGTTTCGAGACGTGCTA	4.44
TTAGATATCGGGCTTCGATTAGTGCTA	-0.176
TCACCTTTACATTCCCCACTGTGCTAG	2.62
TTAGGTTTCGACTATCGGTTCGTGCTA	4.17
GACCGTATCCTTATCCTGACGTGCTAG	1.61
GACGGTATCCACTATCGGGACGTGCTA	0.326
GACGGTATCGACACTCGGGACGTGCTA	0.0607
TTAGGTCTTCTACTGCTTTAGTGCTAG	0.727
TTTTCACTTTCTTTAACTCAGTGCTAG	5.44
TTAGATATCGGGAATCGATTAGTGCTA	-0.332
GACGGACTGGGGTCTGGGGACGTGCTA	-0.8
TCATCTTTCCTCACCATACTGTGCTAG	2.63
TTAGATTTCAGTATCGAATAGTGCTAG	0.451
TCAAGTATGACTCTGCCACTGTGCTAG	0.557

Block 5 — target: CCNA1, cyclin fold, Cln2 fusion (human); technique: yeast growth competition, sequencing; sample: yeast; setting: weak parent motif; relative to: not given; direction: higher = stronger binding
Parent: INSM1 docking peptide (human); PKAIRKLHFEDEV
Substitution	normalised enrichment score
I4R	1.58
L7T	0.211
K2Q	0.258
R5Y	-0.0416
E10V	0.105
I4A	1.19
A3H	0.824
H8R	0.412
I4W	0.507
K6D	0.0639
A3T	0.307
E12W	0.395
E10S	0.699
I4F	0.576
R5A	-0.233
I4Y	0.586
D11V	0.211
L7Q	-0.282
H8D	0.434
H8I	0.655
H8M	0.261
K2I	0.0421
K6N	0.606

Excerpt of the above (block 3):
Strand	fluorescence intensity [a.u.]
CGATATAGCACCGACCATGTGGGCAAATTCGTAATAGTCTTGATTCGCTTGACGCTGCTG	12100
CTTTCCCGATCTTGTCACCGCACTTTAGCACATTTGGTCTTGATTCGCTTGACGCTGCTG	4190
CGGGGTTAAGTTTGACACGTGGGTGGCTTGCAGCAGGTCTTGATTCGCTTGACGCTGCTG	17300
TCGGACGATAACGCCGGCGTGATGGCCACAGAAACAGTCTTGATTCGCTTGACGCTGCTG	4990
